{"data": "Assay results collected from several papers", "cell line": "NCI-H460", "note": "Compare with care: the assays were run in different laboratories. ± marks the error that the study gave."}
{"SMILES": "CCC1=C(CC)C2=[N+]3C1=Cc1c(CC)c(CC)c4[n]1[Ir-3]31([n+]3ccccc3)([n+]3ccccc3)[n]3c(c(CC)c(CC)c3=CC3=[N+]1C(=C4)C(CC)=C3CC)=C2.Cl", "test": "cell growth or viability", "setting": "dark", "IC50": "0.11 µM"}
{"SMILES": "COCC12CCC(OC)C34C5CC6(O)C(OC)C(=O)C(C5C6O)C(C(OC)C13)C4N(C)C2 (centres unmarked)", "test": "cell growth or viability, MTT", "IC50": "14.4 µM"}
{"SMILES": "Clc1nc2ccccc2cc1-c1nc2ccccc2[nH]1", "test": "cell growth or viability, MTT", "setting": "48 h", "IC50": "> 100 µM"}
{"SMILES": "O=C(NCCCNc1n[n+]([O-])c2ccccc2[n+]1[O-])C(F)(F)F", "test": "cytotoxicity, MTT", "test system": "10% FBS medium", "setting": "6 h + 18 h, hypoxia 3% O2", "IC50": "55.9 ± 7.4 µM"}
{"SMILES": "Cc1ccc2nc(Cl)c(-c3nc4cc(C)c(C)cc4[nH]3)cc2c1", "test": "cell growth or viability, MTT", "setting": "48 h", "IC50": "> 100 µM"}
{"SMILES": "CCOC12C(O)C(OC)C3(O)CC(C1C3OC(=O)c1ccccc1)C13C(OC)CC(O)C4(COC)CN(C)C1C2C(OC)C43 (centres unmarked)", "test": "cell growth or viability, MTT", "IC50": "18.8 µM"}
{"SMILES": "Cc1ccc(C(=O)NCCNC(=O)[C@@]2(C)[C@H](O)CC[C@@]3(C)[C@H]2CC[C@]2(C)[C@@H]3C(=O)C=C3[C@@H]4[C@@H](C)[C@H](C)CC[C@]4(C)CC[C@]32C)cc1", "test": "cell growth or viability, MTT", "setting": "48 h", "IC50": "4.31 µM"}
{"SMILES": "Nc1ccccc1NC(=O)c1ccc(Nc2nccc(-c3cn(C4CCCCC4)nn3)n2)cc1", "test": "cell growth or viability, SRB", "setting": "72 h", "IC50": "2.69 µM"}
{"SMILES": "Clc1nc2cc3c(cc2cc1-c1nc2cc(Br)ccc2[nH]1)OCO3", "test": "cell growth or viability, MTT", "setting": "48 h", "IC50": "> 100 µM"}
{"SMILES": "O=C(CCCCCCN1CCN(c2ccc(Nc3ncc(F)c(-c4cn(C5CCCC5)nn4)n3)cc2)CC1)NO", "test": "cell growth or viability, SRB", "setting": "72 h", "IC50": "1.2 µM"}
{"SMILES": "O=C(O)Cc1ccccc1Nc1c(Cl)cccc1Cl.O=C(O)Cc1ccccc1Nc1c(Cl)cccc1Cl.c1cnc2c(c1)ccc1cccnc12.c1cnc2c(c1)ccc1cccnc12", "test": "cytotoxicity, MTT", "IC50": "1.69 ± 0.02 µM"}
{"SMILES": "CCCCCC(=O)NCCNC(=O)[C@]1(C)[C@@H]2CC[C@]3(C)[C@H](C(=O)C=C4[C@@H]5[C@@H](C)[C@H](C)CC[C@]5(C)CC[C@]43C)[C@@]2(C)CC[C@H]1OC(C)=O", "test": "cell growth or viability, MTT", "setting": "48 h", "IC50": "14.5 µM"}
{"SMILES": "Clc1cc2nc(-c3cc4ccccc4nc3Cl)[nH]c2cc1Cl", "test": "cell growth or viability, MTT", "setting": "48 h", "IC50": "15.1 µM"}
{"SMILES": "CCCCCCCC(=O)NCCNC(=O)[C@]1(C)[C@@H]2CC[C@]3(C)[C@H](C(=O)C=C4[C@@H]5[C@@H](C)[C@H](C)CC[C@]5(C)CC[C@]43C)[C@@]2(C)CC[C@H]1OC(C)=O", "test": "cell growth or viability, MTT", "setting": "48 h", "IC50": "12.1 µM"}
{"SMILES": "CN1CCN(c2ccc(Nc3nccc(-c4cn(C5CCCCC5)nn4)n3)cc2)CC1", "test": "cell growth or viability, SRB", "setting": "72 h", "IC50": "> 10 µM"}
{"SMILES": "O=c1[nH]c2ccccc2nc1/C=C/c1ccccc1Br", "test": "cell growth or viability, MTT", "setting": "72 h", "IC50": "9.62 µM"}
{"SMILES": "CCCCCC(=O)NCCNC(=O)[C@@]1(C)[C@H](O)CC[C@@]2(C)[C@H]1CC[C@]1(C)[C@@H]2C(=O)C=C2[C@@H]3[C@@H](C)[C@H](C)CC[C@]3(C)CC[C@]21C", "test": "cell growth or viability, MTT", "setting": "48 h", "IC50": "14.3 µM"}
{"SMILES": "Cn1[c]([Ir-3]234([NH3+])[n]5c6ccc5C(c5c(F)c(F)c(F)c(F)c5F)=C5C=CC(=[N+]52)C(c2c(F)c(F)c(F)c(F)c2F)=c2ccc([n]23)=C(c2c(F)c(F)c(F)c(F)c2F)C2=[N+]4C(=C6c3c(F)c(F)c(F)c(F)c3F)C=C2)[n+](C)c2ccccc21.F[P-](F)(F)(F)(F)F", "test": "cell growth or viability", "setting": "dark", "IC50": "0.46 µM"}
{"SMILES": "CC(=O)O[C@@H]1CC[C@@]2(C)[C@@H](CC[C@]3(C)[C@@H]2C(=O)C=C2[C@@H]4[C@@H](C)[C@H](C)CC[C@]4(C)CC[C@]23C)[C@@]1(C)C(=O)NCCNC(=O)CCCCCCC[P+](c1ccccc1)(c1ccccc1)c1ccccc1", "test": "cell growth or viability, MTT", "setting": "48 h", "IC50": "> 30 µM"}
{"SMILES": "N#Cc1c(-c2ccc(Cl)cc2)cc(-c2cccc3ccccc23)nc1Nc1ccc(Nc2nc(-c3cccc4ccccc34)cc(-c3ccc(Cl)cc3)c2C#N)cc1", "test": "cell growth or viability, MTT", "setting": "72 h", "IC50": "0.698 µM"}
{"SMILES": "CCOC12C(O)C(OC)C3(O)CC(O)(C1C3OC(=O)c1ccccc1)C13C(OC)CC(O)C4(COC)CN(C)C1C2C(OC)C43 (centres unmarked)", "test": "cell growth or viability, MTT", "IC50": "19.4 µM"}
{"SMILES": "C[C@H]1[C@H](C)CC[C@]2(C)CC[C@]3(C)C(=CC(=O)[C@@H]4[C@@]5(C)CC[C@@H](O)[C@](C)(C(=O)NCCNC(=O)c6ccccc6)[C@@H]5CC[C@]43C)[C@H]12", "test": "cell growth or viability, MTT", "setting": "48 h", "IC50": "14.3 µM"}
{"SMILES": "O=C(NCCNc1n[n+]([O-])c2ccccc2[n+]1[O-])C(F)(F)F", "test": "cytotoxicity, MTT", "setting": "24 h, normoxia 20% O2", "IC50": "44.2 ± 5 µM"}
{"SMILES": "CN1CCN(c2ccc(C(=O)Nc3n[nH]c4ccc(Cc5cc(F)cc(F)c5)cc34)c(NC3CCOCC3)c2)CC1", "test": "cell growth or viability, MTT", "setting": "72 h", "IC50": "3.5 µM"}
{"SMILES": "COc1ccc2nc(Cl)c(-c3nc4cc(Br)ccc4[nH]3)cc2c1", "test": "cell growth or viability, MTT", "setting": "48 h", "IC50": "26.8 µM"}
{"SMILES": "O=C(NCCCCCNc1n[n+]([O-])c2ccccc2[n+]1[O-])C(F)(F)F", "test": "cytotoxicity, MTT", "test system": "10% FBS medium", "setting": "6 h + 18 h, hypoxia 3% O2", "IC50": "43 ± 12.6 µM"}
{"SMILES": "COc1ccc2nc(Cl)c(-c3nc4ccccc4[nH]3)cc2c1", "test": "cell growth or viability, MTT", "setting": "48 h", "IC50": "> 100 µM"}
{"SMILES": "CCC1=C(CC)C2=[N+]3C1=Cc1c(CC)c(CC)c4[n]1[Ir-3]31([Cl])([C]#[O+])[n]3c(c(CC)c(CC)c3=CC3=[N+]1C(=C4)C(CC)=C3CC)=C2", "test": "cytotoxicity", "setting": "1 h, together with: visible light 2.8 mW/cm2", "IC50": "19.7 ± 1 µM"}
{"SMILES": "COc1ccc2nc(Cl)c(-c3nc4cc(F)ccc4[nH]3)cc2c1", "test": "cell growth or viability, MTT", "setting": "48 h", "IC50": "> 100 µM"}
{"SMILES": "CCCCCCCC(=O)NCCNC(=O)[C@@]1(C)[C@H](O)CC[C@@]2(C)[C@H]1CC[C@]1(C)[C@@H]2C(=O)C=C2[C@@H]3[C@@H](C)[C@H](C)CC[C@]3(C)CC[C@]21C", "test": "cell growth or viability, MTT", "setting": "48 h", "IC50": "14.1 µM"}
{"SMILES": "O=C(NCCCCCCCNc1n[n+]([O-])c2ccccc2[n+]1[O-])C(F)(F)F", "test": "cytotoxicity, MTT", "test system": "10% FBS medium", "setting": "6 h + 18 h, hypoxia 3% O2", "IC50": "46.8 ± 20.3 µM"}
{"SMILES": "O=[N+]([O-])[O-].O=[N+]([O-])[O-].[Cu+2].[Cu+2].c1ccc(-c2nc(-c3ccc4c(c3)OCO4)n[n-]2)nc1.c1ccc(-c2nc(-c3ccc4c(c3)OCO4)n[n-]2)nc1", "test": "cell growth or viability, MTT", "setting": "24 h", "IC50": "5.27 µM"}
{"SMILES": "C=C1CC23CC4C5C6(C)CC(O)CC57C(C2C(O)C1C(O)C37)N4C6 (centres unmarked)", "test": "cell growth or viability, MTT", "IC50": "14.1 µM"}
{"SMILES": "COc1ccc(-c2nnc(-c3ccccn3)[nH]2)cc1OC", "test": "cell growth or viability, MTT", "setting": "24 h", "IC50": "> 100 µM"}
{"SMILES": "N#Cc1c(-c2ccc(Cl)cc2)cc(-c2cccc3ccccc23)nc1NNC(=O)Cc1ccccc1", "test": "cell growth or viability, MTT", "setting": "72 h", "IC50": "0.025 µM"}
{"SMILES": "Cc1ccc2nc(Cl)c(-c3nc4cc(F)ccc4[nH]3)cc2c1", "test": "cell growth or viability, MTT", "setting": "48 h", "IC50": "> 100 µM"}
{"SMILES": "O=C(CCCCCCOc1ccc(Nc2ncc(F)c(-c3cn(C4CCCCC4)nn3)n2)cc1)NO", "test": "cell growth or viability, SRB", "setting": "72 h", "IC50": "2.05 µM"}
{"SMILES": "CCCCCCC(=O)NCCNC(=O)[C@]1(C)[C@@H]2CC[C@]3(C)[C@H](C(=O)C=C4[C@@H]5[C@@H](C)[C@H](C)CC[C@]5(C)CC[C@]43C)[C@@]2(C)CC[C@H]1OC(C)=O", "test": "cell growth or viability, MTT", "setting": "48 h", "IC50": "10.8 µM"}
{"note": "A few entries again:"}
{"SMILES": "CCCCCC(=O)NCCNC(=O)[C@]1(C)[C@@H]2CC[C@]3(C)[C@H](C(=O)C=C4[C@@H]5[C@@H](C)[C@H](C)CC[C@]5(C)CC[C@]43C)[C@@]2(C)CC[C@H]1OC(C)=O", "test": "cell growth or viability, MTT", "setting": "48 h", "IC50": "14.5 µM"}
{"SMILES": "N#Cc1c(-c2ccc(Cl)cc2)cc(-c2cccc3ccccc23)nc1Nc1ccc(Nc2nc(-c3cccc4ccccc34)cc(-c3ccc(Cl)cc3)c2C#N)cc1", "test": "cell growth or viability, MTT", "setting": "72 h", "IC50": "0.698 µM"}
{"SMILES": "CCCCCC(=O)NCCNC(=O)[C@@]1(C)[C@H](O)CC[C@@]2(C)[C@H]1CC[C@]1(C)[C@@H]2C(=O)C=C2[C@@H]3[C@@H](C)[C@H](C)CC[C@]3(C)CC[C@]21C", "test": "cell growth or viability, MTT", "setting": "48 h", "IC50": "14.3 µM"}
{"SMILES": "CC(=O)O[C@@H]1CC[C@@]2(C)[C@@H](CC[C@]3(C)[C@@H]2C(=O)C=C2[C@@H]4[C@@H](C)[C@H](C)CC[C@]4(C)CC[C@]23C)[C@@]1(C)C(=O)NCCNC(=O)CCCCCCC[P+](c1ccccc1)(c1ccccc1)c1ccccc1", "test": "cell growth or viability, MTT", "setting": "48 h", "IC50": "> 30 µM"}
{"SMILES": "Cc1ccc(C(=O)NCCNC(=O)[C@@]2(C)[C@H](O)CC[C@@]3(C)[C@H]2CC[C@]2(C)[C@@H]3C(=O)C=C3[C@@H]4[C@@H](C)[C@H](C)CC[C@]4(C)CC[C@]32C)cc1", "test": "cell growth or viability, MTT", "setting": "48 h", "IC50": "4.31 µM"}
